Measurements pooled from the literature.
Numbered parts are unrelated; each lists some results of a single study.

Series 1
Target: Histone acetyltransferase KAT6A, both winged helices, GST fusion (KAT6A, Homo sapiens, UniProt Q92794, residues 1-181)
Technique: protein binding microarray
Molecule type: double-stranded DNA, one strand shown
Medium: in vitro
Concentration: not given
Notes: 8-mer, flanks averaged, mean of 2 arrays, mostly near background
Relative to: not given
Reading: higher = stronger binding
Residues (chain): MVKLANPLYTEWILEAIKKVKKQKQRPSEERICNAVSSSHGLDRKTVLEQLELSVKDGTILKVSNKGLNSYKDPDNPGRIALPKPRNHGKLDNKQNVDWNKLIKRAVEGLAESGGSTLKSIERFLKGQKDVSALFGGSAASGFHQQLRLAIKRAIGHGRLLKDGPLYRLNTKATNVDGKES
`ACATAGAT` has an E-score of 0.0146.
With `GCACTGGC` the E-score was 0.00666.
`CAGGCGTC` gave an E-score of 0.0566.
The E-score of `CCAGAAGG` is reported as -0.0557.
With `CCATTGTA` the E-score was -0.104.
`ATGAGACA` gave an E-score of -0.162.

Series 2
Target: Interferon regulatory factor 5, full length, phosphomimetic (IRF5, Homo sapiens, UniProt Q13568-2, residues 1-514, S451D/S453D/S456D/S462D)
Technique: protein-binding microarray
Molecule type: double-stranded DNA, one strand shown
Medium: in vitro
Concentration: 940 nM top
Notes: 60-bp whole probe
With: salmon DNA 0.4 mg/ml
Relative to: random background probes
Reading: higher = stronger binding
Shared flanks, not repeated: GCCTAGCAC … GTCTTGATTCGCTTGACGCTGCTG
`TGCTTCCTCTTTTTTGTTCCGTGCTAG`: “fitted relative affinity” 2 z-score.
`TTTATTTTCAGTATTACCTCGTGCTAG` — result for “fitted relative affinity”: 2.03 z-score.
`TTAGGTATCGACTATCGGCTAGTGCTA`: “fitted relative affinity” 5.47 z-score.
Under “fitted relative affinity”, `TTAAGACTGGGTTTCGGTTAGTGCTAG` is recorded as 7.62 z-score.
For `AAGACTTTGGTTTGTACACCGTGCTAG`, “fitted relative affinity” read -0.56 z-score.
`TTAGGTTTCCTTCTACTTTAGTGCTAG`: “fitted relative affinity” 2.48 z-score.
For `AGGCCTCTGGGATCCCAGTCGGTGCTA`, “fitted relative affinity” read -0.62 z-score.
`TCACTTCTGCATTACAGACTGTGCTAG`: “fitted relative affinity” 0.105 z-score.

Series 3
Target: Sal-like protein 4, full length isoform B (SALL4, Homo sapiens, UniProt Q9UJQ4-2, residues 1-616)
Technique: universal PBM
Molecule type: double-stranded DNA, one strand shown
Medium: in vitro
Concentration: not given
Notes: 8-mer, flanks averaged, mean of replicates
Reading: higher = stronger binding
Construct (chain): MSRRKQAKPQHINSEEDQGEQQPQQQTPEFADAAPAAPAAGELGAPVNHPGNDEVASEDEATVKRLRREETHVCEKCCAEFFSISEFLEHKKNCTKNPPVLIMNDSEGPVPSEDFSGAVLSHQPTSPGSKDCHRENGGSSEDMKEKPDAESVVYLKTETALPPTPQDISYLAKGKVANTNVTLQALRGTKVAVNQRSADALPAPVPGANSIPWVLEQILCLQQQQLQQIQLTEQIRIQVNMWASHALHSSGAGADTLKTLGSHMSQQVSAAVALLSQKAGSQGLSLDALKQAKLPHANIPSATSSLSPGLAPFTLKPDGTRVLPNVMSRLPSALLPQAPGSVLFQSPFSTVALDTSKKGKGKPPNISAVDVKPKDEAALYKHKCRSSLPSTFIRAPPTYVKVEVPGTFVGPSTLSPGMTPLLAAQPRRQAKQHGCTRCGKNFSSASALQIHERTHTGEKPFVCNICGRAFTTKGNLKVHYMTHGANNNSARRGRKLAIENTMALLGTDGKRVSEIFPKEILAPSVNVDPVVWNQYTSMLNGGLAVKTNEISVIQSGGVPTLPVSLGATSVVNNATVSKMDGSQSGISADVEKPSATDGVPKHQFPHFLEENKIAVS
For `AACCGCTT`, the E-score was -0.0559.
`CCAGAGCG` has an E-score of -0.309.
The E-score of `ACATTGTA` is reported as 0.139.
`ACGCACAC` gave an E-score of 0.0224.
With `CTTGCTGA` the E-score was -0.131.

Other studies, line by line
`PhoQ, residues 284 288 289 292 302 303 SIHLQL` gave a fold induction of 0.983 (PhoP, residues 12 14 15 18 19 YHFSH (Escherichia coli, UniProt P23836); Sort-seq, item: YFP reporter; E. coli; PhoQ-PhoP variant library, with: 10 µM Mg2+; relative to: high Mg2+ state, higher = stronger signaling).

A few entries again (series 3):
`CCAGAGCG` has an E-score of -0.309.
For `AACCGCTT`, the E-score was -0.0559.
